Assay results from different studies.
Each numbered part is a random draw from the data of one study; scales do not carry over between parts. “And” joins repeats or separate records; there may be more than shown. Positions count from the first letter of the parent shown.
UniProt P57723, sequence (1-187, looked up): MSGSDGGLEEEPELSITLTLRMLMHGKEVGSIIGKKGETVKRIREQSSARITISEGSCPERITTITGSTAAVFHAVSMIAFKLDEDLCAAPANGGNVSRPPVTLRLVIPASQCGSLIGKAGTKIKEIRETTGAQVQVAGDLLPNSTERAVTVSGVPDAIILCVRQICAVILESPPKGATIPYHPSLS

Series 1
Target: CREB5, bZIP domain (human)
Technique: DHFR protein complementation
Matrix: yeast
Setting: single substitutions, most at no-binding floor
Relative to: wild-type JUN-FOS pair
Direction: higher = stronger binding
Measurement: binding fitness
Starting sequence: JUN, bZIP domain (human); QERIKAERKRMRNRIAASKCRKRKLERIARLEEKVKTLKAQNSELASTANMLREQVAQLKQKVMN; partner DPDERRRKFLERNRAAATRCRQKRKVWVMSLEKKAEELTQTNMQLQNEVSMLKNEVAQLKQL
Variant = A46N; result = -0.251 natural log
Variant = K36Y; result = -0.321 natural log
Variant = A29N; result = -0.405 natural log
Variant = L45V; result = -1.34 natural log
Variant = K36P; result = -1.35 natural log
Variant = Q41H; result = -0.46 natural log
Variant = E33F; result = -0.588 natural log
Variant = A29Y; result = -0.214 natural log

Series 2
Target: Interferon regulatory factor 3, full length, phosphomimetic (IRF3, Homo sapiens, UniProt Q14653, residues 1-427, S386D/S396D/S398D/S402D/T404D/S405D)
Technique: protein-binding microarray
Molecule type: double-stranded DNA, one strand shown
Matrix: in vitro
Concentration: 2540 nM top
Setting: 60-bp whole probe
Together with: salmon DNA 0.4 mg/ml
Relative to: random background probes
Direction: higher = stronger binding
Measurement: fitted relative affinity
Constant ends, left off below: GCCTAGCAC … GTCTTGATTCGCTTGACGCTGCTG
Construct (chain): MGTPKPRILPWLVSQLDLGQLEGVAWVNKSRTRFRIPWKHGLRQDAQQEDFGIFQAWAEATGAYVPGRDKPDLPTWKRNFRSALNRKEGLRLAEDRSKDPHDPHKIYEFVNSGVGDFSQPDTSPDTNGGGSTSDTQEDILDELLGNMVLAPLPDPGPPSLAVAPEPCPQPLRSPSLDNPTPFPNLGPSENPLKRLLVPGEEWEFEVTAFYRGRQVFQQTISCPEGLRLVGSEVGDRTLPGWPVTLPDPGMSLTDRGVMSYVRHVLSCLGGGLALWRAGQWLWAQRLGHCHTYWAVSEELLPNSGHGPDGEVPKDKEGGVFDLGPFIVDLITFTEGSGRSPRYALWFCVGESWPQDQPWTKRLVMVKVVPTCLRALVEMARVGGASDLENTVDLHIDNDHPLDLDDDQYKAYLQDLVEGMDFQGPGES
Sequence = TTTGATATCGGGTATCGATTAGTGCTA; result = 0.454 z-score
Sequence = TCACTCTTCCTTTACTTACTGTGCTAG; result = 1.8 z-score
Sequence = TTAAGACTGGGGTATCGGTTAGTGCTA; result = 0.0434 z-score
Sequence = GACGGTACCGGACTGGGGACGTGCTAG; result = 0.593 z-score
Sequence = CACAGTCTGAGATCCAGAAGGTGCTAG; result = 0.414 z-score
Sequence = GACGGTTTCGGATTTCGGGACGTGCTA; result = 7.64 z-score
Sequence = TCAAAAGTGTTTCTCAAACTGTGCTAG; result = 0.241 z-score
Sequence = CTCTAAGACACAAGATCAGAGTGCTAG; result = -0.173 z-score

Series 3
Target: UDP-N-acetylglucosamine--peptide N-acetylglucosaminyltransferase 110 kDa subunit (OGT, Homo sapiens, UniProt O15294)
Read-out: binding
Technique: phage display NGS
Molecule type: peptide
Concentration: concentration not given
Relative to: input library
Measurement: enrichment fold change
Residues (O15294 1-1046): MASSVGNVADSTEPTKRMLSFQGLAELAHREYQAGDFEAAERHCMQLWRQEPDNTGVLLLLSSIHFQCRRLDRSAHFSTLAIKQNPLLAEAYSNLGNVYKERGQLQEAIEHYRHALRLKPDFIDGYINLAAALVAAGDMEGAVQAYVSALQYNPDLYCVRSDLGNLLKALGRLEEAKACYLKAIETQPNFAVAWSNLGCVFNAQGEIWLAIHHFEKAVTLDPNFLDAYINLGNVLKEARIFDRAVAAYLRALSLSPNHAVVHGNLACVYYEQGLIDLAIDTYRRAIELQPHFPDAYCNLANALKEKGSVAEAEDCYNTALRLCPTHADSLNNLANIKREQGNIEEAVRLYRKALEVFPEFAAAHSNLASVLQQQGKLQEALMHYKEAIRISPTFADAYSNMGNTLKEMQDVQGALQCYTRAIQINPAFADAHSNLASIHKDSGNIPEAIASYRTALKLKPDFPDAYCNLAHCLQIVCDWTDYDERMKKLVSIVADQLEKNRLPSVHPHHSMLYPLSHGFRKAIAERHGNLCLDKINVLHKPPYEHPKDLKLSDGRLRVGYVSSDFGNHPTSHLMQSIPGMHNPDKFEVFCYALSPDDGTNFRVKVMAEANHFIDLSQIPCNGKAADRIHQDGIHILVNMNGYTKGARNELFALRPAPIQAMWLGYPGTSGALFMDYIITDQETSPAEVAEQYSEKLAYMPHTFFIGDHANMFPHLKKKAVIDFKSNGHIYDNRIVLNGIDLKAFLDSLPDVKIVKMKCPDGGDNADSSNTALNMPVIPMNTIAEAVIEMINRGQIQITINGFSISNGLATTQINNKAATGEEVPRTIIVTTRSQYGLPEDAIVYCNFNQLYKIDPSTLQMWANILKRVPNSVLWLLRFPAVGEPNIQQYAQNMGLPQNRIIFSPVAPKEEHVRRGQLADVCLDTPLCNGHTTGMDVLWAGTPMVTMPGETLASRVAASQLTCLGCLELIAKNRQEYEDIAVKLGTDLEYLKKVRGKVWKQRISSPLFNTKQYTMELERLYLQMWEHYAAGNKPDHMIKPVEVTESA
Sequence = HYTMEHNWAHQEQHH; result = 6.17
Sequence = HTRADFHHFHHDVEQ; result = 6.02
Sequence = QHHWMHHEWQAHQPH; result = 3.04
Sequence = HRQHHVTDSMNPYRT; result = 5.16

Series 4
Substance: HNRNPU (Homo sapiens, UniProt Q00839)
Technique: cross-linking MS
Matrix: cell fractions
Together with: DSSO
Measurement: cross-linked residues
partner = GPKOW (Homo sapiens, UniProt Q92917); result = K551 to K178
partner = AGO3 (Homo sapiens, UniProt Q9H9G7); result = K352 to T472
partner = KRR1 (Homo sapiens, UniProt Q13601); result = K352 to S128

Series 5
Target: CCNE2, cyclin fold, Cln2 fusion (human)
Technique: yeast growth competition, sequencing
Matrix: yeast
Setting: strong parent motif
Relative to: not given
Direction: higher = stronger binding
Measurement: normalised enrichment score
Starting sequence: viral docking peptide; TSVRRALFTGGSD
Variant = G10I; result = 3.16
Variant = V3C; result = 3.2
Variant = R4L; result = 0.722
Variant = G10E; result = 5.5
Variant = G10N; result = 4.45
Variant = V3L; result = 0.217
Variant = R5P; result = -0.513
Variant = R5Y; result = 0.127
Variant = S2C; result = 3.31
Variant = V3E; result = 0.222
Variant = F8P; result = 0.275
Variant = L7W; result = 0.148
Variant = G11N; result = 3.99
Variant = V3W; result = 1.39
Variant = G10Q; result = 4.04
Variant = L7R; result = 0.562
Variant = T1A; result = 4.59
Variant = R4G; result = -0.325
Variant = G11Y; result = 3.56

Mixed results
Substance = PhoQ, residues 284 288 289 292 302 303 SVTLVV; tested on = PhoP, residues 12 14 15 18 19 QWHVF (Escherichia coli, UniProt P23836); test = Sort-seq, measured: YFP reporter; test system = E. coli; setting = PhoQ-PhoP variant library, together with: 10 µM Mg2+; scale = relative to: high Mg2+ state, higher = stronger signaling; measurement = fold induction; result = 2.96
Substance = O=C1CCC(N2Cc3c(ccc4c3OCC43CCN(Cc4ccccc4)CC3)C2=O)C(=O)N1 (stereo not drawn); test system = ICR mouse, male, plasma; setting = intravenous, 1 mg/kg, 2 h; measurement = plasma concentration; result = 54.4 ng/mL and 61.2 ng/mL
Substance = AAAAAAAA (biotin); tested on = Poly(rC)-binding protein 4, KH domains 1-2 (PCBP4, Homo sapiens, UniProt P57723, residues 1-187); test = protein domain microarray; test system = RNA, in vitro; setting = not given, poly(A) 8-mer RNA, whole probe, immobilized GST-fusion domains, most near background; scale = relative to: GST loading signal, higher = stronger binding; measurement = signal ratio; result = 0.0475

A few entries again (series 4):
partner = AGO3 (Homo sapiens, UniProt Q9H9G7); result = K352 to T472
partner = KRR1 (Homo sapiens, UniProt Q13601); result = K352 to S128
